Results gathered from unrelated publications.
Numbered parts are unrelated; each lists some results of a single study.

Block 1
Target: Phosphate system positive regulatory protein PHO4, full length, GST-tagged (PHO4, Saccharomyces cerevisiae, UniProt P07270, residues 1-312)
Technique: competition protein-binding microarray
Molecule type: double-stranded DNA, one strand shown
Medium: in vitro
Concentration: 2 µM
Setting: whole 60-bp probe, lowest competitor level
With: Cbf1 competitor, 0.05 µM
Reading: higher = stronger binding
All sequences stand within: … GTCTTGATTCGCTTGACGCTGCTG
Residues (chain): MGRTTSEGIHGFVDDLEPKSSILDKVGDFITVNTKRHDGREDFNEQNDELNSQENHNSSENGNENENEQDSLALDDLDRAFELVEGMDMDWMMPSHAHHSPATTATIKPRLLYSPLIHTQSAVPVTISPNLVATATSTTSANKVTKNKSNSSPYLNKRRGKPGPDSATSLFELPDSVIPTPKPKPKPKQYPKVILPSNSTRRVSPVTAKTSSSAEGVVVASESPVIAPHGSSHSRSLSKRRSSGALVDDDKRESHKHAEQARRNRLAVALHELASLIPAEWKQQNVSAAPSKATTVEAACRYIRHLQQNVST
Strand | fluorescence intensity [a.u.]
TACCTGGGCATCCATCACGCTTCAGCCGCTCTGTGT | 5540
TCCGCGAGTCATCTCGACATGACAATCTTTTGCTAG | 3900
TCATTTTAGGCAGGGCCGGTACAGACCGCACCAATC | 2670
TGCGCAACAACTTTACACGTGTTTTTATGTCTAGAA | 17100
ATTACAGAAGAACCCCTCGTGACGGCTGGATTACTG | 11900
GTCTTGTCTCATTGCAAGGTGGGTGTCCCCACTTCA | 4910
CTTTCCCGATCTTGGCGAGTGGGTGTAGCACATTTG | 5010
CTTCTGTAAATTTTTCACGTGCGTTGACGCGCCCCG | 13900
TTGTTGATCCTGGTAGGCGTGGCCGTACCGCCATTG | 7200
GTACTAATTACACTGCAAGTGTGCCTATTCTTCCTT | 6070
TGGAAACCTGCCTGTCACATGATGTAAAATCTCCAT | 7600
GCGCTACCGTTGCGCCACGAGGCCTGTCCAACAGCG | 9770
CGTCCTAGTGATTGTCACCCGACTTCCATGAGGAAG | 4390
TTGATATCTGAAGTTGCTCCCAAACAAATCAGAGGA | 3020
TGGCAATGGCCACTCACCGTGCCAGGCCTGCAAGTC | 5420
GGATTTGGCTACGGCCACGTCCAATTTTCACTTGCT | 3390
CATCCTCTTACATCGCACGTGATGGTATACTACTAA | 19400
CTTCTGTAAATTTGTCACCTTACTTGACGCGCCCCG | 3710
GGCGCAACATTTAATTGCATGACAAATTCCACTGCT | 5210
CGAATCAGGTTTCCCAACGTGTGGACCTCCTTCTCA | 9420
AAAGCGGTAATTTGATAAGTGGGTGCAGATATCTAT | 3740
CTTTCCCGATCTTGTCACTTTACTTTAGCACATTTG | 3470
CGTCCTAGTGATTTTCACGTGACATCCATGAGGAAG | 12500
AGAGAGTTGATAGAACAAAGGACAAAGAAATTTAGA | 2630
GTAACCAGACAAGTCAGCGTGAGGACAGTTGGATTC | 4270

Block 2
Target: Interferon regulatory factor 5, full length, phosphomimetic (IRF5, Homo sapiens, UniProt Q13568-2, residues 1-514, K96S/S451D/S453D/S456D/S462D)
Technique: protein-binding microarray
Molecule type: double-stranded DNA, one strand shown
Medium: in vitro
Concentration: 250 nM
Setting: 60-bp whole probe
With: salmon DNA 0.4 mg/ml
Relative to: random background probes
Reading: higher = stronger binding
All sequences stand within: GCCTAGCAC … GTCTTGATTCGCTTGACGCTGCTG
Strand | log fluorescence [z-score]
TGGGTCTTGGTTCTCAGCTTGTGCTAG | -0.796
TTAGGACTGGGACCGGGTTAGTGCTAG | -0.673
TTAGGACTGCGTATCGGTTAGTGCTAG | 2.94
GACGGTTCCCTTTTCCCGACGTGCTAG | 0.574
GACGGTTTCGCCACTGGGGACGTGCTA | 2.95
TTAGGTATCAGTCTCGATTAGTGCTAG | 2.3
TTAGGACTGCTTATCCTATAGTGCTAG | -0.231
TTAGGTTTCGACTTTCTGTTAGTGCTA | 8.21
TTAGATCTCAGTTTCGATAAGTGCTAG | 8.72
TCATTTTTTCATATATAACTGTGCTAG | 2.02
GACGGTGTCGGTTCCGGGACGTGCTAG | 0.152
TTTGGACTGGGTATCGGTTAGTGCTAG | 4.25
TCGGTTTCCAAATTGTCTCTGTGCTAG | 1.18
GACGGTTTCCTTCTTCTGACGTGCTAG | 0.815
TTAGATCTCAGTTTTGATTAGTGCTAG | 1.08
TTAGGGTTCGACTTTCGGTTAGTGCTA | 9.24
TTAGGACTGCTACTGCCTTAGTGCTAG | -0.527
CAACCTATAGGTTCAACGACGTGCTAG | -0.158
GACGGTTTCCTACTGCTGCCGTGCTAG | 0.449
TTAGATCTAAGTTTCGATTAGTGCTAG | 8.74
TTAGGTCTCCTTCTCCGTTAGTGCTAG | -0.0113
AACGGTTTCGACTTTCGGGACGTGCTA | 8.4
TTAGGTATCCTTATGCTTTAGTGCTAG | 0.18
TACTCTCCAGGGTTTCTCTTTGTGCTA | 0.524
TTAGGACTGGGGTATCAGTTAGTGCTA | 0.2

Block 3
Target: RNA binding protein fox-1 homolog 2, RRM domain, GST-SBP tag (RBFOX2, Homo sapiens, UniProt O43251-10, residues 100-194)
Technique: RNA Bind-n-Seq
Molecule type: RNA
Medium: in vitro
Concentration: 365 nM
Setting: natural RNA segment, single round, ends assumed
Relative to: no-protein control
Reading: higher = stronger binding
All sequences stand within: GGGAGUUCUACAGUCCGACGAUC … UGGAAUUCUCGGGUGCCAA
Residues (chain): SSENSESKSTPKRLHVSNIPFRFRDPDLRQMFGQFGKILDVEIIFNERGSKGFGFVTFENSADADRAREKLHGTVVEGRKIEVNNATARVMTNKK
Strand | RBNS enrichment (R)
GCAGCUCAGUGUGUGUCAGUGAUAAGAGUGUGGGAAGGCUUCAUCCUCUGCAGAGGCUGCUGAAGAAGAGUGGGUCAGCUGCAUCCUGGCUGAACCUUUAAUAGGGGACC | 1.21
UUUCAUUCUUUCUAGUGUACUAGAUCCAGAAAUUUAGUGUGAUGCCCUGCUUUCUCUUUUCUUUGACUUAACAUUGGUUUCUGAAAGAAUCUUUGCUACCUAGAACCUGC | 0.426
UGCUCAGAUCCAGUCCACGGGUCCAAGGAUGCUGGAUCCAAGGACUUCUCUUCCACAGUGGCCGGCCCACUCAAUCCCAGGGCCAUUGGCCUCACCCUCCCACCCCAUGU | 0.5
CUUAGGGGGCAGAAGCCAAUGGGUGGAAAGAACAGUAGAGGUUCUGUAUAGCAUGGAAGUCAACUGCAGCCCAUAUCACACCUGGUCCUGGGAAUGUGUCCUCAUCACUU | 3.47
GCAUUGAUGAUUCCUUCAACUUCCUGGUGAAACUGCUGACUUAAUUUGCUUUUGUUUGCUUUAGCUUGGUAACAGCGGUGAAUAGAGUGUAGUGUAAGUGGAGAACCAGG | 0.302
GGCAGCACUAUCUAGAUAGGUAAGUGGGGGCGGGGAAGGGUGCAUAGCUGUUUUAGCCGAGGGACUCGAUACCGACGUCCCCAGAUAUAGCUAGGCUAAGUCAAGAUCAA | 0.564
GAUACUUUUAAUUUACAAAGUAAUUUUGUUUUAUGUUUUAAAGUGUAAAUUAAAAAUGCUUUAGUUUACCUGGCAUUUGGGUAUGCUCAGUAAUGCCUGCCAGCAGCACC | 0.705
GGCAAGAAUGCAGUGUUGGGCCUUUCAACCACUAGAACAAACUUUUUUCAAUUGACAGUUGCAGAAUUGUGGAGUGUUUUUACAUUGAUCUUUUGCUAAUGCAGUUAGCA | 1.3
CAAAGCCUGUGAGCAGUAUACGUGGAUGCUCACCCAUGAGAAGGAGCACACACGCCUCAUUCUCUGCCCUCACCCACUGCUCACCUAGAGCAUCGCUGAGCGUUAGACAA | 0.267
GACCUCAGAGGCAUUUUUGCCAAGAGGGCAGAACCUGACUGAGCCCUGGAUAUCCCCUGUCUUAGUGGGUCUGCCAAGGUCUUGUCAGUCUUUUUCUGGUUUUGCUCAAG | 0.203
AUACUUUUUAGAAAAGGAGCAUCUGGUUAUGCAUAAAGCAGAGCUAAAACUAAAUUUCUUUCAUGUCCUCCCUACUUCCUCAGUGUCAAUCAGAUUAAAGUGUGUAAUCC | 0.594
AGAUGAGACUGAAGACAUCAAGAAAUAAAGGAGGGCAUGCAAGUGUGGAGUAUUUACUUGCUCAGUAACUGUGACUGUUGUCUAUUGAGACCUAGCCUAGUUUUCCUGCA | 1.02

Block 4
Target: RING finger protein unkempt homolog, zinc fingers 1-6, GST-SBP tag (UNK, Homo sapiens, UniProt Q9C0B0, residues 30-357)
Technique: RNA Bind-n-Seq
Molecule type: RNA
Medium: in vitro
Concentration: not given
Setting: RNA with constant flanks, human-mouse chimeric sites, ends assumed
Relative to: input RNA pool
Reading: higher = stronger binding
All sequences stand within: GGGAGUUCUACAGUCCGACGAUC … CAACAGAGGAUUGAGCAUCA
Construct (chain): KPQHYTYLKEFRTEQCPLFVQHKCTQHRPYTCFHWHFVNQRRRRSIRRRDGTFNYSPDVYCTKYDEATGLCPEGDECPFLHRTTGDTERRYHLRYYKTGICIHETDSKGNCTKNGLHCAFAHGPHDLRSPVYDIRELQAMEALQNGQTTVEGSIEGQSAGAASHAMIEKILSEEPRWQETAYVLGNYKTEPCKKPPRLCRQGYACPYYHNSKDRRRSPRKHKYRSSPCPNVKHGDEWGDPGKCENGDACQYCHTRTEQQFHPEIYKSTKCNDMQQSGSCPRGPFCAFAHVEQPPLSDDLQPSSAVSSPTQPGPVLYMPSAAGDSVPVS
Strand | bound/input enrichment [ratio]
GUAUACGGUUAUCGAGGAAAGGACUGUAGAGCGAAUGUAUACCUGCUUCCCACAGGGAAAAUAGUUUAUUUUAUCGCCUCAGUGGUAGUACUAUUUAAUUAUGAGGAGAGGACUCAGCGA | 5.9
GAAUCCUACUCAGGCGGAUUUUGCAACACCAAGCUCAAGUAGCAAUUAUCUUAGUCACAGUAGGGUAGUUUUGGGGCUCUGUGGCCAUGGUUUUACUCACAUGCAGGUUUGGAAAAUGUA | 1.58
GAAAGAGAACUAAAGCAACUAAUAGAGGAAGAGGAUUGCAAAGAGAAUUUCAUAGAGAAACUAGGAUUUAUUAGCAAACAUGAGUUAUAUUCCAGAGCGUCUCAGAAACCCCAGCCAAAC | 6.64
GCUCCUCCCCGCUCUGCAGCCUGGGGACACUGGGCUGCAUUUUUUUUCCAGCUUUCUUUUAAUAGUGUCAGUGUAACUGUAUCCCGUGACAUUUCAUUUUUUUUAAAUAGUGUAUUUUUU | 18.9
CCUGCUCAGAUCACCAUGAAAGUAAUCCAAGGCCUAUAUAGUGGGGUCACCACAGUGGAACUGGACACUUUGGCUGCUGAAACAGCUGCGACCUUGACCACGAAGCACCCUGACUAUGCC | 0.0791
UCGGAUGCUGUGCUGGGUCACUUUUCAUAUCCAGAUCCUUCCCAGUGGACAGAUGAAGAACUGGGAAUCCCUCCUGAUGACGAGGACUGACACUGUAAACUCUCUGGACGAGUAGGAGCA | 0.697
UACUGCUGCUUUCAACUUAAAUCACUGAGGCAUCUCUACUAUUCUGUGAGCAUCAGGACUGUAGCGCUGUGUCACCACAUGAGAGUUCAGAAGCAGCCUUUCUGUGGAGGGUGGGAAUGA | 0.11
GGGACUGAUUCAUCCCAAGGACAGGCCACCCCAUUUGAUGCCUGGACUGACGACAGUAUGGAAGGGCCUAGUCAAAAUGUUGAAGCUGAGUCAAUUCAGGAUGCCAUGCAUAUGGCAGAG | 0.166
ACCUCCCCCUCCCGCCUCACCCCACCCCCGCUUUUUGGAAAGUUUUUGGCGUUUCUUUUUUUUAGAAAUACAAAGUGAUUACAGUUUCCCCCGCAAGUGGGGCUUGAAGGGCUUGACGGA | 0.661
GUUCGACUCUGGGAUCAUGCCACAAUGACAGAAGUGAAAUCUCUAAAUUUUAAUAUGUCUGUUAGCAGCAUGGAGUAUAUUCCUGAAGGAGAGAUUUUGGUUAUUACUUAUGGACGAUCU | 0.253
AACAGAUUGUCUUUAAGCAUUCCAAGCGAGAAUGCUGGGGUGAUCAUUGUUGCCCAUGUGCCUUCUGACUGAGCUUUAAUGCUGUUCAUCCUUGAUGUGAUGUUCUUCUCCAGAAUUGUU | 0.159

For quick reference, copied from above (block 1):
Strand | fluorescence intensity [a.u.]
TCATTTTAGGCAGGGCCGGTACAGACCGCACCAATC | 2670
TGCGCAACAACTTTACACGTGTTTTTATGTCTAGAA | 17100
ATTACAGAAGAACCCCTCGTGACGGCTGGATTACTG | 11900
GTCTTGTCTCATTGCAAGGTGGGTGTCCCCACTTCA | 4910
CTTTCCCGATCTTGGCGAGTGGGTGTAGCACATTTG | 5010
CTTCTGTAAATTTTTCACGTGCGTTGACGCGCCCCG | 13900
TTGTTGATCCTGGTAGGCGTGGCCGTACCGCCATTG | 7200
GTACTAATTACACTGCAAGTGTGCCTATTCTTCCTT | 6070
TGGAAACCTGCCTGTCACATGATGTAAAATCTCCAT | 7600
GCGCTACCGTTGCGCCACGAGGCCTGTCCAACAGCG | 9770
CGTCCTAGTGATTGTCACCCGACTTCCATGAGGAAG | 4390
